{"data": "Published values from different studies", "note": "Every numbered part comes from another study and shows a few of its results, in no order."}
{"data": "Series 1", "target": "Histone acetyltransferase KAT6A, winged helix 2, GST fusion (KAT6A, Homo sapiens, UniProt Q92794, residues 85-181)", "method": "protein binding microarray", "molecule type": "double-stranded DNA, one strand shown", "medium": "in vitro", "tested at": "not given", "setting": "8-mer, flanks averaged, mean of 2 arrays, mostly near background", "baseline": "not given", "reading": "higher = stronger binding", "Construct (chain)": "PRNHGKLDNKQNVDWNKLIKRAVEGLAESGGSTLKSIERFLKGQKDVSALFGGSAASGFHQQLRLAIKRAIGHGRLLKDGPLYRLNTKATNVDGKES"}
{"Strand": "AAATCTAA", "E-score": -0.051}
{"Strand": "ACGTAGCG", "E-score": -0.217}
{"Strand": "CTAAAACC", "E-score": -0.079}
{"Strand": "CATTGCCG", "E-score": -0.0396}
{"Strand": "AAAGTCAG", "E-score": -0.0867}
{"Strand": "GGCTGGAA", "E-score": 0.0842}
{"Strand": "ACGCCGAC", "E-score": 0.0271}
{"Strand": "CTCACCTC", "E-score": 0.0374}
{"Strand": "CAAGCTTA", "E-score": 0.114}
{"Strand": "ACAGCTAT", "E-score": -0.0967}
{"Strand": "GTTCTGAA", "E-score": -0.000875}
{"Strand": "GGTATGCA", "E-score": 0.00668}
{"Strand": "CAGCCTCC", "E-score": 0.0504}
{"Strand": "GCTTGGAC", "E-score": -0.0377}
{"Strand": "ATAGCGCG", "E-score": 0.101}
{"Strand": "ATCGGGTG", "E-score": 0.0875}
{"data": "Series 2", "target": "RNA binding protein fox-1 homolog 2, RRM domain, GST-SBP tag (RBFOX2, Homo sapiens, UniProt O43251-10, residues 100-194)", "method": "RNA Bind-n-Seq", "molecule type": "RNA", "medium": "in vitro", "tested at": "365 nM", "setting": "natural RNA segment, single round, ends assumed", "baseline": "no-protein control", "reading": "higher = stronger binding", "all sequences stand within": "GGGAGUUCUACAGUCCGACGAUC … UGGAAUUCUCGGGUGCCAA", "Residues (chain)": "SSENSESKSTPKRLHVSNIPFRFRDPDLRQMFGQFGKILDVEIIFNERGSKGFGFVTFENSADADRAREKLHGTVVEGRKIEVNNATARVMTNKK"}
{"Strand": "CCCAGACCGUGUGACACAGCACAGCCUCCUUAAUGACACGUUGCCAUGUAACGCACCUGUAACUUAUCAGCCCAUGUUCAUUACGUAACUUUGUACUGUACGUCACAGUG", "RBNS enrichment (R)": 0.263}
{"Strand": "AGAGGCUUCUCACCCUUCCUGCUUUUUCACCACAAUCACCUUGAGCUCGUCCCUUGGACUAGAGUCUCCACAGUUCCAGUAAAAUUCUGCGGUGGGCUGAUGAGCUGCUU", "RBNS enrichment (R)": 0.521}
{"Strand": "AUUCAGGGAACCUGUCUUAAAUUGUGCUUAUCUAAAUCUUGGAACUUUGAGCUAGGGGAGGAGAAUGUAUUAGACUAAAUACAAACUGCGGGGUUGUAAGGGAGUCUCAG", "RBNS enrichment (R)": 0.885}
{"Strand": "CAUUCCCGCCACUGUGUCUCUGUGUAUUGAAAGCCUCUCCUGUGACCACAGCCUGUGUUGACAGAUGUCUGUCUGUCCCUGUGCAAUCCAGUCUGGGCCUCAGACUCAGA", "RBNS enrichment (R)": 0.433}
{"Strand": "GAUCUUCUAAGGGGCCCAGGGCCAACCCUGUAGGCUUCCCCUCUGCUGGGGACGGUAGUUGCUUUUCUCUCUCCUGAUGCUAGGUUGGGGCCCACCCUGCUCCCUGUUCC", "RBNS enrichment (R)": 0.423}
{"Strand": "AAGUUCCCAAACCUCCUUGUGCCUCAGUUUCCCCAUCUGGAAAAAAUGGGGCCACCUCUUGCCAGCAGUAGCAGGGCUGCCCACGCCCCUUUCUCCCCAUGCCCCAUCCA", "RBNS enrichment (R)": 0.47}
{"Strand": "UUUGUACAACUCUUACUUUCUAUGUGAUAAGAAUGCAAUAUGUGCCUCUUUCCCCUACUAGCCCCAUGUGACACAUAUUUUUCACACUAUGUGGCAUCAACCAGUGCCAU", "RBNS enrichment (R)": 14.6}
{"Strand": "GGGUCAUUGGAAACCAUAAUGCAGAGUGGGCCCCCUACUCCAUUUCCCAGCAAAAGGCUCCAGCUGGAGGGAUGGGUUGUGGGGCAACCUGGUUCCUGCUAACUGCCAGA", "RBNS enrichment (R)": 0.5}
{"data": "Series 3", "target": "Interferon regulatory factor 3, full length, phosphomimetic (IRF3, Homo sapiens, UniProt Q14653, residues 1-427, S386D/S396D/S398D/S402D/T404D/S405D)", "method": "protein-binding microarray", "molecule type": "double-stranded DNA, one strand shown", "medium": "in vitro", "tested at": "2540 nM top", "setting": "60-bp whole probe", "with": "salmon DNA 0.4 mg/ml", "baseline": "random background probes", "reading": "higher = stronger binding", "all sequences stand within": "GCCTAGCAC … GTCTTGATTCGCTTGACGCTGCTG", "chain of UniProt Q14653 (whole entry, unmodified, looked up)": "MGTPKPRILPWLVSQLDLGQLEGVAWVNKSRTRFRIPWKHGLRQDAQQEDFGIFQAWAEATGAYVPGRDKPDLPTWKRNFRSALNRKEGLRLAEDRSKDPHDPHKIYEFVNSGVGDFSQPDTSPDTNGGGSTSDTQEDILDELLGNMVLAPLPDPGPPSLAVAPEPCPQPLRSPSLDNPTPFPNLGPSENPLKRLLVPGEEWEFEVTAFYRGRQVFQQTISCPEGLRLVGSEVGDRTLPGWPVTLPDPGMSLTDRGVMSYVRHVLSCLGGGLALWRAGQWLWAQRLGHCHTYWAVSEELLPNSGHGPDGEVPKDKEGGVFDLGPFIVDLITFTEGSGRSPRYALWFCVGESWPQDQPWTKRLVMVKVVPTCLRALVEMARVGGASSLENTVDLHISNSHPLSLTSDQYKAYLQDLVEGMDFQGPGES"}
{"Strand": "GACGGTATCGGTTTCGTGACGTGCTAG", "fitted relative affinity [z-score]": 5.99}
{"Strand": "GACGGACTGGGTATCGGGCCGTGCTAG", "fitted relative affinity [z-score]": -0.552}
{"Strand": "TTAGGTATCGACACTGGGATAGTGCTA", "fitted relative affinity [z-score]": 0.334}
{"Strand": "GACGGTATCGGACTGTGGACGTGCTAG", "fitted relative affinity [z-score]": 1.65}
{"Strand": "GAGGGTATCGGGACTGGGGACGTGCTA", "fitted relative affinity [z-score]": 0.211}
{"Strand": "TCAGGTTTCTGGTTTATACTGTGCTAG", "fitted relative affinity [z-score]": 2.22}
{"Strand": "TTTCCCATGAGTCTCAATATGTGCTAG", "fitted relative affinity [z-score]": 3.56}
{"Strand": "TGAGGTTTCCTTATCCTTTAGTGCTAG", "fitted relative affinity [z-score]": 7.45}
{"Strand": "GACGGTTTCGGGACTGCGGACGTGCTA", "fitted relative affinity [z-score]": 4.98}
{"Strand": "GACGGTCTCCCTTTCCTGACGTGCTAG", "fitted relative affinity [z-score]": 3.85}
{"Strand": "CACGGTTTCGACTTTCGGGACGTGCTA", "fitted relative affinity [z-score]": 3.41}
{"Strand": "AACGATTTCAGTTCCGAGACGTGCTAG", "fitted relative affinity [z-score]": 2.71}
{"Strand": "TAAGGTTTCCAATCAGCCCCGTGCTAG", "fitted relative affinity [z-score]": 5.48}
{"Strand": "GACGGTTTCGAGTTTCGGGACGTGCTA", "fitted relative affinity [z-score]": 4.87}
{"Strand": "GACGATTTCAGTATCTAGACGTGCTAG", "fitted relative affinity [z-score]": 2.13}
{"Strand": "TTAGGTTTCCTTCTCCTTTCGTGCTAG", "fitted relative affinity [z-score]": 10.2}
{"Strand": "TTAGGTTTCGGTTTCGATTAGTGCTAG", "fitted relative affinity [z-score]": 11.8}
{"Strand": "TTAGGTTTAGGGTTTCGGTTAGTGCTA", "fitted relative affinity [z-score]": 2.34}
{"Strand": "TTAGATTTCAGTTTCCATTAGTGCTAG", "fitted relative affinity [z-score]": 6.31}
{"data": "Series 4", "target": "Fragile X messenger ribonucleoprotein 1, C-terminal low-complexity region (Fmr1, Mus musculus, UniProt P35922)", "method": "RNA Bind-n-Seq", "molecule type": "RNA", "medium": "in vitro", "tested at": "200 nM", "setting": "whole 134-nt RNA, ends assumed", "with": "150 mM KCl", "baseline": "input library", "reading": "higher = stronger binding", "all sequences stand within": "GGGAGUUCUACAGUCCGACGAUC … UGGAAUUCUCGGGUGUCAAGG"}
{"Strand": "UCCUCAAGUCCUGUGCUACACAUCGUAUGUACCGAAUCGGAGGAGGUUUGGAAAGUAUUAUGUUACGCCGUUCGGAUCUGCACUUCCAGC", "log2 enrichment": -0.73}
{"Strand": "UAACUUUAGAGGAGGAUCUGAUGGAUAUGGCAGUGGACGCGGAUUUGGGGAUGGCUAUAAUGGGUAUGGAGGAGGACCUGGAGGUGGCAA", "log2 enrichment": 0.136}
{"Strand": "CACAGACAACACGCACCCACACAGACACAGAGAGAAGGGGUUGGGAUGGGGACAGGGUGCACAGCAGGGCGGGGUAGGACCCCAGCCCCU", "log2 enrichment": 1.16}
{"Strand": "UGGCCCUGGUGGCAUGCGGGGAGGAAGAGGUGGCCUCAUGGAUCGUGGUGGUCCUGGUGGAAUGUUCAGAGGUGGCCGUGGUGGAGACAG", "log2 enrichment": 0.164}
{"Strand": "UCAUUGCAUGAAAAGUGGAAAAGUUUAGAUCUAUGGAAACAGAACUGUUGCCUAUAUGGAAAAUCAGUGCCUUGUGGCAAUACAGGUAAG", "log2 enrichment": -1.7}
{"Strand": "GCAGGAAGUAAAAACAAAUGGAAAUGCUUCGGAUAGUGGCAGGGAAAGGGGUUGCUAAGGAAAGGGUGGGAUGGGAGUGGGUAAAGAGUU", "log2 enrichment": 0.223}
{"Strand": "UGCCAUGGACAAUAUUACCAGGCAGAACCAAUUCUACGAUACCCAAGUCAUCAAACAAGAAAACGAGUCAGGCUACGAGAGGAGACCACU", "log2 enrichment": 0.0138}
{"Strand": "GCAGGAAGUAAAAACAAAUGGGAAUGCUUCGGAUAGUGGCAGGGGUGGGGGUUGCUAAGGAAAGGGUGGGAUGGGAGUGGGUAAAGAGUU", "log2 enrichment": 0.189}
{"Strand": "UCCUGUGCUACACAUCGUAUGUACCGAAUCGGGCCCCCGGGGCCCCCGGGGCCCCCGGGGAAAGUAUUAUGUUACGCCGUUCGGAUCUGC", "log2 enrichment": -0.688}
{"data": "Series 5", "target": "Transcriptional repressor CTCF (CTCF, Homo sapiens, UniProt P49711, residues 1-727, full length assumed)", "method": "protein-binding microarray", "molecule type": "double-stranded DNA, one strand shown", "medium": "in vitro", "tested at": "not given", "setting": "k-mer, scored over probes, only values ≥0.25", "reading": "higher = stronger binding", "chain of UniProt P49711 (whole entry, looked up)": "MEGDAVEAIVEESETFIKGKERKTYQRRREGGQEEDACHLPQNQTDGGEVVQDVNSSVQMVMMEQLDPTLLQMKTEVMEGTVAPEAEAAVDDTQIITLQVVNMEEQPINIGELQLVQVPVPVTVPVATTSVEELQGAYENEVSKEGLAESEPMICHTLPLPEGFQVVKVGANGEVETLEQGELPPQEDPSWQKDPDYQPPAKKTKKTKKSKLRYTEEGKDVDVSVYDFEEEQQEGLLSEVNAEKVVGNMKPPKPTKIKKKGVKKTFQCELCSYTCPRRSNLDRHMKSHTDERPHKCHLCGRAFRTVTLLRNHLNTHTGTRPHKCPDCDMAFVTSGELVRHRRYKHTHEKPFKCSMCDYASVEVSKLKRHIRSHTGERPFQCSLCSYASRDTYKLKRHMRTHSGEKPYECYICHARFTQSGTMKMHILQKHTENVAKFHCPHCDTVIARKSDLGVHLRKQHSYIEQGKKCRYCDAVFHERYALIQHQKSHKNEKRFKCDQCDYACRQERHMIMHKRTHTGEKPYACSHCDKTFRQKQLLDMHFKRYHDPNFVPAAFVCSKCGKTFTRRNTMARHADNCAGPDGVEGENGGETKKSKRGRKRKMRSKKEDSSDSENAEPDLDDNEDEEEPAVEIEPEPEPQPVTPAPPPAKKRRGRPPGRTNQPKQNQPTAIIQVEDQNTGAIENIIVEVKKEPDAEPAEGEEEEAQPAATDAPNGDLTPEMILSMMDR"}
{"Strand": "ATCTGCAT", "E-score": 0.264}
{"Strand": "GTTAAATA", "E-score": 0.278}
{"Strand": "ATGTATTG", "E-score": 0.273}
{"Strand": "CGCAATAG", "E-score": 0.258}
{"Strand": "ATACTCGC", "E-score": 0.304}
{"Strand": "GGGGGATA", "E-score": 0.341}
{"Strand": "AATATGTA", "E-score": 0.255}
{"Strand": "CATAGCAC", "E-score": 0.25}
{"Strand": "TGCGCAAA", "E-score": 0.378}
{"Strand": "CATAAATA", "E-score": 0.346}
{"Strand": "TAACAATA", "E-score": 0.286}
{"Strand": "AGAAGTAT", "E-score": 0.251}
{"Strand": "ACATTTTA", "E-score": 0.295}
{"Strand": "AGTAGAAA", "E-score": 0.26}
{"Strand": "ACTTTATG", "E-score": 0.253}
{"Strand": "ATATTGTA", "E-score": 0.265}
{"Strand": "CGTAAATC", "E-score": 0.255}
{"Strand": "ATTAAATG", "E-score": 0.286}
{"Strand": "TACATCTA", "E-score": 0.274}
{"Strand": "ATGAATAC", "E-score": 0.285}
{"Strand": "AACAATAA", "E-score": 0.276}
{"Strand": "AATGCGCC", "E-score": 0.398}
{"Strand": "ATTATTTC", "E-score": 0.267}
{"Strand": "TATGTAAA", "E-score": 0.286}
{"Strand": "ATTATTAC", "E-score": 0.318}
{"note": "For quick reference, copied from above (series 4):"}
{"Strand": "UGGCCCUGGUGGCAUGCGGGGAGGAAGAGGUGGCCUCAUGGAUCGUGGUGGUCCUGGUGGAAUGUUCAGAGGUGGCCGUGGUGGAGACAG", "log2 enrichment": 0.164}
{"Strand": "UCAUUGCAUGAAAAGUGGAAAAGUUUAGAUCUAUGGAAACAGAACUGUUGCCUAUAUGGAAAAUCAGUGCCUUGUGGCAAUACAGGUAAG", "log2 enrichment": -1.7}
{"Strand": "GCAGGAAGUAAAAACAAAUGGAAAUGCUUCGGAUAGUGGCAGGGAAAGGGGUUGCUAAGGAAAGGGUGGGAUGGGAGUGGGUAAAGAGUU", "log2 enrichment": 0.223}
{"Strand": "UGCCAUGGACAAUAUUACCAGGCAGAACCAAUUCUACGAUACCCAAGUCAUCAAACAAGAAAACGAGUCAGGCUACGAGAGGAGACCACU", "log2 enrichment": 0.0138}
{"Strand": "GCAGGAAGUAAAAACAAAUGGGAAUGCUUCGGAUAGUGGCAGGGGUGGGGGUUGCUAAGGAAAGGGUGGGAUGGGAGUGGGUAAAGAGUU", "log2 enrichment": 0.189}
